Assay results gathered from unrelated publications.
Each numbered part is a random draw from the data of one study; scales do not carry over between parts.
UniProt Q02763, sequence (whole entry, looked up): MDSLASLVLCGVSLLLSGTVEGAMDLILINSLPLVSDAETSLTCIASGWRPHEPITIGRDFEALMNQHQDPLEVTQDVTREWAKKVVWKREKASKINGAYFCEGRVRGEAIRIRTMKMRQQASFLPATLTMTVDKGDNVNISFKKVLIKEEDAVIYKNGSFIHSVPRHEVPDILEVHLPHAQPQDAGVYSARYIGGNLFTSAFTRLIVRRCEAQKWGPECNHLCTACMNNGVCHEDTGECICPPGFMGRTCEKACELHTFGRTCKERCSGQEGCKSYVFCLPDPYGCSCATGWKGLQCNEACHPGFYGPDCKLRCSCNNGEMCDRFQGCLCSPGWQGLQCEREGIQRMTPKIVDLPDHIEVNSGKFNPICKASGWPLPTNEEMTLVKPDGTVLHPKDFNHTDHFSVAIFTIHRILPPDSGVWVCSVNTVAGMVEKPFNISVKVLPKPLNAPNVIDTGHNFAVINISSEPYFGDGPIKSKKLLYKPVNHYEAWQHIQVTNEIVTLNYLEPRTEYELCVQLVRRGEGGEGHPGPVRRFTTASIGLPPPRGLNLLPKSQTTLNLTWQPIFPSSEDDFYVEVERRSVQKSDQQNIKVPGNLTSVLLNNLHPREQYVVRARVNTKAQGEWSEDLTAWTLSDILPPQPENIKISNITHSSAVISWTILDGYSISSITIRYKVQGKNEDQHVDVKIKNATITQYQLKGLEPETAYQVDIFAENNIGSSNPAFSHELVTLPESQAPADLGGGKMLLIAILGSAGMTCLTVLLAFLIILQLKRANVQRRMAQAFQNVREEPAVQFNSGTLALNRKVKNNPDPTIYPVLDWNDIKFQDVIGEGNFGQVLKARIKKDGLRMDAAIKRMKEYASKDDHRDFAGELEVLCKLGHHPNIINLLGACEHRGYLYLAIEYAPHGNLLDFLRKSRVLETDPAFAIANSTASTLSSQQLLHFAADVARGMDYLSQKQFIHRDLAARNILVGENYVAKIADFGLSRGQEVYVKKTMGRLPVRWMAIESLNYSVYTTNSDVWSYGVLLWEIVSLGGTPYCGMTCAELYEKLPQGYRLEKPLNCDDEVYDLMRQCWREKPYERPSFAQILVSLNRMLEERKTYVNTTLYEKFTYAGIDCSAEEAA
UniProt Q99558, sequence (whole entry, looked up): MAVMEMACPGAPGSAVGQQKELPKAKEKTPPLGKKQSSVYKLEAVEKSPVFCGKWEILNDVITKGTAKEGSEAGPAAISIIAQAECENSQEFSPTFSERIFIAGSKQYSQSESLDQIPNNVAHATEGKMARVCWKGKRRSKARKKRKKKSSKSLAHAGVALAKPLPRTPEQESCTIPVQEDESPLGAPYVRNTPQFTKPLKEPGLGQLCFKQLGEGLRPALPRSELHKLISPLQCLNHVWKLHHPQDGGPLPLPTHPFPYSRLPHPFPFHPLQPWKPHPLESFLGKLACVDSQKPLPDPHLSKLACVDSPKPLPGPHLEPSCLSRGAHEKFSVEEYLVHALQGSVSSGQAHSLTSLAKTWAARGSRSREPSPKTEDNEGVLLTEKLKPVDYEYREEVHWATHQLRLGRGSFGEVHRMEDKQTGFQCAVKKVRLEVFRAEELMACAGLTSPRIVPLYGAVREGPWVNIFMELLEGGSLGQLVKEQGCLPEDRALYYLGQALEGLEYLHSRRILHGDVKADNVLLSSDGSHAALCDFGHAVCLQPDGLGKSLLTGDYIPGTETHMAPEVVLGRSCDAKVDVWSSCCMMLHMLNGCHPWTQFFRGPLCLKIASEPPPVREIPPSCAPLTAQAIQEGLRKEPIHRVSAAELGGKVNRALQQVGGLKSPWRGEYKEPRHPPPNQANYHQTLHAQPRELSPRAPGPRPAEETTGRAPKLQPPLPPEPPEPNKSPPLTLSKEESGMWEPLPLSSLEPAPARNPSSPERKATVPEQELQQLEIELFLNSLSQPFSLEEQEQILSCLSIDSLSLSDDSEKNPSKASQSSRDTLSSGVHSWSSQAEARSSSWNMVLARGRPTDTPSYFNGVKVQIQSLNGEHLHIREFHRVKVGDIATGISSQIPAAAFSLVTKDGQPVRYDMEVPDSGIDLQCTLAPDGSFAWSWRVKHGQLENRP
UniProt Q15349, sequence (whole entry, looked up): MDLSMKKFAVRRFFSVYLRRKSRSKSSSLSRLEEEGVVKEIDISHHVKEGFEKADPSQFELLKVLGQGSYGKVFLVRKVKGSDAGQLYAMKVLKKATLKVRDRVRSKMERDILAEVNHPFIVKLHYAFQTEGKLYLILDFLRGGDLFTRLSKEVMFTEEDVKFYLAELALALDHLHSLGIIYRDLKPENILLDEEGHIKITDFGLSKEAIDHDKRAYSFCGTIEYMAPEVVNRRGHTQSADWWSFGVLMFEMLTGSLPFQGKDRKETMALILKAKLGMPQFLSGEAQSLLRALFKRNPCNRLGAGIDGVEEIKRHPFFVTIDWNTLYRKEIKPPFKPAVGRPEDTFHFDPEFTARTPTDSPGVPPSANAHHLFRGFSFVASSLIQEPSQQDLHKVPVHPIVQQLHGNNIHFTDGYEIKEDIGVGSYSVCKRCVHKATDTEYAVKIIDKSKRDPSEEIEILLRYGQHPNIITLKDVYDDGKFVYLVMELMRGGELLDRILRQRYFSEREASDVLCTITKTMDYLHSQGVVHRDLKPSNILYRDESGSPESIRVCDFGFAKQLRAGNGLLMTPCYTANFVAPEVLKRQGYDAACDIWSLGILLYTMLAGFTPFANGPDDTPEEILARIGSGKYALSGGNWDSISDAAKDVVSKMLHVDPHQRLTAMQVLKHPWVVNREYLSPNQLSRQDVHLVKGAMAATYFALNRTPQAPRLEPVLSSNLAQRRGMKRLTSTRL
UniProt Q9HC98, sequence (whole entry, looked up): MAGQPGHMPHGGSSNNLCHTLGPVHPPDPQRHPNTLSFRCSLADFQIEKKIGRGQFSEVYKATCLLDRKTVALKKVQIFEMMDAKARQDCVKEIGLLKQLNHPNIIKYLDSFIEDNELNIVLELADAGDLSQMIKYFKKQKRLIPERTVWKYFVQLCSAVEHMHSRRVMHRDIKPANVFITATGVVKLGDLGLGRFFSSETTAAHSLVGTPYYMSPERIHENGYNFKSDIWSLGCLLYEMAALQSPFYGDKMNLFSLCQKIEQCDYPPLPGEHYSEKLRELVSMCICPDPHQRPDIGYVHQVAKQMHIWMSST
UniProt P22607, sequence (whole entry, looked up): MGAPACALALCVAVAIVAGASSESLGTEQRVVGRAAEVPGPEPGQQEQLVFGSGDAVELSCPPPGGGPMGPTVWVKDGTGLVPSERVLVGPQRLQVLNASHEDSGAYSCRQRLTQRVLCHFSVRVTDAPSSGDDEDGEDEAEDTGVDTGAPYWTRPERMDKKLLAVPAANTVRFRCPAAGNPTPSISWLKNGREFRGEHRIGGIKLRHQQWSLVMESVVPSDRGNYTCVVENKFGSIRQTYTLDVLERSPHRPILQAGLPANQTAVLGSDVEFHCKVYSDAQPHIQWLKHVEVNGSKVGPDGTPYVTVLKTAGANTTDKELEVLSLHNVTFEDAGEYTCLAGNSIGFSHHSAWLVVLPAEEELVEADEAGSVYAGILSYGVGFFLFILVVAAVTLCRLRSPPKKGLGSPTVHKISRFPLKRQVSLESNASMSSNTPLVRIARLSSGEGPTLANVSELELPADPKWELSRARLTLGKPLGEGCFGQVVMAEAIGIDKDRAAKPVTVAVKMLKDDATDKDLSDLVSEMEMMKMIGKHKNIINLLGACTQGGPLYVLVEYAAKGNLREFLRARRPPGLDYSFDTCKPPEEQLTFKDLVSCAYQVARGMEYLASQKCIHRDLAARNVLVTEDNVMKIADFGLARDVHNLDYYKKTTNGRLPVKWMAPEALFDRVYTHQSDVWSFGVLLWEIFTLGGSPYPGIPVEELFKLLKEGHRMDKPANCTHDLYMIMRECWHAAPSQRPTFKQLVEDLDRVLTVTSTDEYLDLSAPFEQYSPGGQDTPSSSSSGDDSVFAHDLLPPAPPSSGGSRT

Series 1
Compound: COc1ccc2c(c1)/C(=C/c1cnc[nH]1)C(=O)N2
Observed: enzyme activity
Mode: inhibitor
Concentration: 0.5 µM
Relative to: control
target | remaining activity [%]
Tyrosine-protein kinase Lck (LCK, Homo sapiens, UniProt P06239) | 92
Ribosomal protein S6 kinase alpha-2 (RPS6KA2, Homo sapiens, UniProt Q15349) | 44.3
Mitogen-activated protein kinase kinase kinase 14 (MAP3K14, Homo sapiens, UniProt Q99558) | 96.9
Angiopoietin-1 receptor (TEK, Homo sapiens, UniProt Q02763) | 98.4
Fibroblast growth factor receptor 3 (FGFR3, Homo sapiens, UniProt P22607) | 65
Mitogen-activated protein kinase 3 (MAPK3, Homo sapiens, UniProt P27361) | 87.2
Serine/threonine-protein kinase Nek6 (NEK6, Homo sapiens, UniProt Q9HC98) | 98.2

Series 2
SMILES: CC(C)(C)c1nc(-c2cccc(NS(=O)(=O)c3c(F)cccc3F)c2F)c(-c2ccnc(N)n2)s1
Cell line: L929
Observed: necroptosis protection
Technique: CCK-8
Together with: TNF-α-induced
conditions | viability [%]
1.563 µM | 21.7
50 µM | 76.1
0.781 µM | 18.7
100 µM | 69.1
0.391 µM | 18.8

Other studies, line by line
CDPK1: Calcium-dependent protein kinase 1 (CDPK1, Plasmodium falciparum, UniProt P62344)
UniProt P62344, sequence (whole entry, looked up): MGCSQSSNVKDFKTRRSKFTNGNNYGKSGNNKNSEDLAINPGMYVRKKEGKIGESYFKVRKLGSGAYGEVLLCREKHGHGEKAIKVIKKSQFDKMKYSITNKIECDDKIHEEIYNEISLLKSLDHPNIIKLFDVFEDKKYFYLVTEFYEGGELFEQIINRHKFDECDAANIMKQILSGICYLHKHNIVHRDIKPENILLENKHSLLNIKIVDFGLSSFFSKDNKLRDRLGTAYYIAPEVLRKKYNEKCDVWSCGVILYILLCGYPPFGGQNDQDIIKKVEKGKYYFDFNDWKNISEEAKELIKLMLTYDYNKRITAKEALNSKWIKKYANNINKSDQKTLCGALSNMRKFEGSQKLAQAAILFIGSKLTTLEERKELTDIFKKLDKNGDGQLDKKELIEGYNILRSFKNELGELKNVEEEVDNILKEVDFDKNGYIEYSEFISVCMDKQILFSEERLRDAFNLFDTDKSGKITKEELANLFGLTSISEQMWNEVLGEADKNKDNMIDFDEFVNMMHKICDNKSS
CAMK2A: Calcium/calmodulin-dependent protein kinase type II subunit alpha (CAMK2A, Homo sapiens, UniProt Q9UQM7)
UniProt Q9UQM7, sequence (whole entry, looked up): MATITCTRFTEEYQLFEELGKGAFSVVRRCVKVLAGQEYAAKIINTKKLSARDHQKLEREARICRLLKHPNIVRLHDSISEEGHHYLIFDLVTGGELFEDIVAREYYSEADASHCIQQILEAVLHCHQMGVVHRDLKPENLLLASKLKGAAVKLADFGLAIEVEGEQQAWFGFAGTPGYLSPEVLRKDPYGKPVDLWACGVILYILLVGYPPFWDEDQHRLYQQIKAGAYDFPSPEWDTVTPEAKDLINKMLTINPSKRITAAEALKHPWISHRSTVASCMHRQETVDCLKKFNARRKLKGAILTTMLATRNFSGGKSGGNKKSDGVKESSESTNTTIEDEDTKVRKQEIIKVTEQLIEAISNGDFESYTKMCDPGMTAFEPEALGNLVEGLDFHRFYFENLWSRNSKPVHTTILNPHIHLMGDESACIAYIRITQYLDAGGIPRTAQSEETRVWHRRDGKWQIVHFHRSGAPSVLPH
SMILES | target | assay | conditions | quantity | value
CN([C@@H]1CCc2c(CC(=O)O)c3ccccc3n2C1)S(=O)(=O)c1ccc(F)cc1 | CDPK1 | cell-free assay, competition with immobilised ligand | 1 µM | remaining binding | 90%
Oc1ccc(CCc2cc(O)cc(O)c2)cc1 | CAMK2A | enzyme activity, inhibitor | 10 µM | inhibition | 4%
CO[C@H]1CC[C@H](CNc2ccc(S(=O)(=O)NC(=O)c3ccc(N4CCN(CC5=C(c6ccc(Cl)cc6)CC(C)(C)CC5)CC4)cc3Oc3cnc4[nH]ccc4c3)cc2[N+](=O)[O-])CC1 | Cyclin-dependent kinase 2 homolog (CRK2, Plasmodium falciparum, UniProt P61075) | cell-free assay, competition with immobilised ligand | 1 µM | remaining binding | 100%
CC1=NCCc2c1[nH]c1cc(O)ccc21 | CAMK2A | enzyme activity, inhibitor | 10 µM | inhibition | -7%
C[C@@H]1CN(c2cc(-c3n[nH]c4ccc(OC5(C)CC5)cc34)ncn2)C[C@H](C)O1 | CDPK1 | cell-free assay, competition with immobilised ligand | 0.1 µM | remaining binding | 94%

For quick reference, copied from above (other studies, line by line):
SMILES | target | assay | conditions | quantity | value
CO[C@H]1CC[C@H](CNc2ccc(S(=O)(=O)NC(=O)c3ccc(N4CCN(CC5=C(c6ccc(Cl)cc6)CC(C)(C)CC5)CC4)cc3Oc3cnc4[nH]ccc4c3)cc2[N+](=O)[O-])CC1 | Cyclin-dependent kinase 2 homolog (CRK2, Plasmodium falciparum, UniProt P61075) | cell-free assay, competition with immobilised ligand | 1 µM | remaining binding | 100%
CC1=NCCc2c1[nH]c1cc(O)ccc21 | CAMK2A | enzyme activity, inhibitor | 10 µM | inhibition | -7%
